Experimental data gathered from unrelated publications.
Each line is one published result; not all experiments were run side by side. “And” joins repeats or separate records; there may be more than shown. ± marks the error that the study gave.
ache: Acetylcholinesterase (ache, Electrophorus electricus, UniProt O42275)
Sequence of UniProt D0VWV4 (whole entry, looked up): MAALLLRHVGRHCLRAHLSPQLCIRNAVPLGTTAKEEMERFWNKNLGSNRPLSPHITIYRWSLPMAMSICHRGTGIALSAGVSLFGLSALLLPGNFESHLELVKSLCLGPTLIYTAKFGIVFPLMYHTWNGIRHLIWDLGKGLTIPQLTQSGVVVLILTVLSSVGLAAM
Sequence of UniProt Q007T0 (whole entry, looked up): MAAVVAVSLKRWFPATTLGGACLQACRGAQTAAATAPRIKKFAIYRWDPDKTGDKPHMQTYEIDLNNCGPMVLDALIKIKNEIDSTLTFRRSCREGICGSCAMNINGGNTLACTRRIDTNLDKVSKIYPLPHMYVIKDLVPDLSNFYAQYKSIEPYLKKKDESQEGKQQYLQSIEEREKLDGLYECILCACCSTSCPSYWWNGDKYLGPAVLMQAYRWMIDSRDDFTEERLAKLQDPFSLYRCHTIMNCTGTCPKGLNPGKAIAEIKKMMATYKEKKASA
Sequence of UniProt Q9Y2J8 (whole entry, looked up): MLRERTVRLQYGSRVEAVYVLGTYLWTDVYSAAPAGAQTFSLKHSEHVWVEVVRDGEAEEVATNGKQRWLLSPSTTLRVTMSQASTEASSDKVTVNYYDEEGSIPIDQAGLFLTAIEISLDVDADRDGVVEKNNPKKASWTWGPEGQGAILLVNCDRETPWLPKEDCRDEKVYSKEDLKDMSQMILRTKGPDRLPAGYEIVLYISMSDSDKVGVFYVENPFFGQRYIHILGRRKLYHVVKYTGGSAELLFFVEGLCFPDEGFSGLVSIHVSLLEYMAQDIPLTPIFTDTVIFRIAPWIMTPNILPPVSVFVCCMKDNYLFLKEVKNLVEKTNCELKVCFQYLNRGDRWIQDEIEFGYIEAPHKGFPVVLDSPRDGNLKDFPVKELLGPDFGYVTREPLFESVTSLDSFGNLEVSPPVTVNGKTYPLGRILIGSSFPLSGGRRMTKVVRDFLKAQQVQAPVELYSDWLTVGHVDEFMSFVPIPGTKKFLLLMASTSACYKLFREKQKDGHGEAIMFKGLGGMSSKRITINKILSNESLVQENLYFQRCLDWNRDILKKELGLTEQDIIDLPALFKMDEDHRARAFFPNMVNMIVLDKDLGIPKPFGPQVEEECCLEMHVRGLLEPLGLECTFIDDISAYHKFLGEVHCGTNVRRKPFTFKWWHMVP
Sequence of UniProt A5GZW8 (whole entry, looked up): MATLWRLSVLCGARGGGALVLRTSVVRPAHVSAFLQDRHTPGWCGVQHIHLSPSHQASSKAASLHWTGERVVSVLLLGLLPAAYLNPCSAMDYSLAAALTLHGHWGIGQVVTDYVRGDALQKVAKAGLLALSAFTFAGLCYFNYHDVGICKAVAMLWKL
Sequence of UniProt O42275 (whole entry, looked up): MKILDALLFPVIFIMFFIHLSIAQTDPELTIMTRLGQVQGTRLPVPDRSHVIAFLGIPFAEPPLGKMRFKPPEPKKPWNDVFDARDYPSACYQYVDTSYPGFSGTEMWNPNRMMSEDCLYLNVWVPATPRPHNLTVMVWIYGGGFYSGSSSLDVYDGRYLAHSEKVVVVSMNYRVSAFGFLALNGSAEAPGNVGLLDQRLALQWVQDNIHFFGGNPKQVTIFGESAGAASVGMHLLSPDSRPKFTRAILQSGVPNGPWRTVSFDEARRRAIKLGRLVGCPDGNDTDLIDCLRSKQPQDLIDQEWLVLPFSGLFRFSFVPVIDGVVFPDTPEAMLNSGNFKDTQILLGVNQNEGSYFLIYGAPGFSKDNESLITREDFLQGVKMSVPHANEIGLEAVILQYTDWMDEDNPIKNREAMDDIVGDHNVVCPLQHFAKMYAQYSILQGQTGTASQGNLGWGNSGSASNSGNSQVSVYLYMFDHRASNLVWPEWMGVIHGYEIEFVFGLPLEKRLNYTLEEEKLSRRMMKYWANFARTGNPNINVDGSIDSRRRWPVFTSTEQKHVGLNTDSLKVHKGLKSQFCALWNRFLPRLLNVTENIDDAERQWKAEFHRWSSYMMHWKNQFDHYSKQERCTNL
Sequence of UniProt P0A988 (whole entry, unmodified, looked up): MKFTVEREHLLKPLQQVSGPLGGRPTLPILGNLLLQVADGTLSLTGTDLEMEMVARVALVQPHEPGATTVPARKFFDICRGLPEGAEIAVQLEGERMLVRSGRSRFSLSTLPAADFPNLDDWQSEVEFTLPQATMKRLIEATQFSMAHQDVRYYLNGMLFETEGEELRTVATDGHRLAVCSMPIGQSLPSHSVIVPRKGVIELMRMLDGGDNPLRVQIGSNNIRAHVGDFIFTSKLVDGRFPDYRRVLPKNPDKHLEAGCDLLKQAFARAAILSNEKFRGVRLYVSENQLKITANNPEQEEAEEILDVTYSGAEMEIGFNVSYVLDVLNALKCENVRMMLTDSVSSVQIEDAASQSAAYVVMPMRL
Sequence of UniProt P00811 (whole entry, looked up): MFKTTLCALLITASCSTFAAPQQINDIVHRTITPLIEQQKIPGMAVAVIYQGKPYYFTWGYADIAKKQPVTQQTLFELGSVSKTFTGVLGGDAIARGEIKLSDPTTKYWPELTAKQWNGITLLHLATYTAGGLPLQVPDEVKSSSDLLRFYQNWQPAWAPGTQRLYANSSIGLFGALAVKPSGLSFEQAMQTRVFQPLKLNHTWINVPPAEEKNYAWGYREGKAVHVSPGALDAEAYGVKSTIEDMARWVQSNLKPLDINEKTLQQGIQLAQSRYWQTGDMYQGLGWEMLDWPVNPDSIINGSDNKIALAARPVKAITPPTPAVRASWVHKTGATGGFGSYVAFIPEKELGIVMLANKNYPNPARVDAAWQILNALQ
Sequence of UniProt Q8R146 (whole entry, looked up): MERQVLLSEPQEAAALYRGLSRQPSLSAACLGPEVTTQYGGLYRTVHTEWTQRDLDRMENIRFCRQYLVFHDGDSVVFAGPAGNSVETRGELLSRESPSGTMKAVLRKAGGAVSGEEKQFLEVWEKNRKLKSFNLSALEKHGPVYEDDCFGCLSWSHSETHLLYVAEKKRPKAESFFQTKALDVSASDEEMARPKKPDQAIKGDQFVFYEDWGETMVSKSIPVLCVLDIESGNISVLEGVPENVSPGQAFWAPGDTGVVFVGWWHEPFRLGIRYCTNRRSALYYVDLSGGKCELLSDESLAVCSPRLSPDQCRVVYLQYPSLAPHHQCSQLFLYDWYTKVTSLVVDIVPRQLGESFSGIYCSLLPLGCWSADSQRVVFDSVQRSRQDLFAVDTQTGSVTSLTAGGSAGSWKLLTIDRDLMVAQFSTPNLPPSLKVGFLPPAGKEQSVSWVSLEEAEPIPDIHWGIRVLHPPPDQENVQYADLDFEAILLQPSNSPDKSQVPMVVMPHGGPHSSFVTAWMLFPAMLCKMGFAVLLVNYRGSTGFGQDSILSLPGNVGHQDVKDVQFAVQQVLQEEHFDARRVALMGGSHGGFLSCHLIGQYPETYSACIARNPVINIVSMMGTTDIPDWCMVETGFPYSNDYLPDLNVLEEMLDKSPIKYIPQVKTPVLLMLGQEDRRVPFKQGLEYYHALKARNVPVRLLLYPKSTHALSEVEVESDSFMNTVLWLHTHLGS
Sequence of UniProt P46098 (whole entry, looked up): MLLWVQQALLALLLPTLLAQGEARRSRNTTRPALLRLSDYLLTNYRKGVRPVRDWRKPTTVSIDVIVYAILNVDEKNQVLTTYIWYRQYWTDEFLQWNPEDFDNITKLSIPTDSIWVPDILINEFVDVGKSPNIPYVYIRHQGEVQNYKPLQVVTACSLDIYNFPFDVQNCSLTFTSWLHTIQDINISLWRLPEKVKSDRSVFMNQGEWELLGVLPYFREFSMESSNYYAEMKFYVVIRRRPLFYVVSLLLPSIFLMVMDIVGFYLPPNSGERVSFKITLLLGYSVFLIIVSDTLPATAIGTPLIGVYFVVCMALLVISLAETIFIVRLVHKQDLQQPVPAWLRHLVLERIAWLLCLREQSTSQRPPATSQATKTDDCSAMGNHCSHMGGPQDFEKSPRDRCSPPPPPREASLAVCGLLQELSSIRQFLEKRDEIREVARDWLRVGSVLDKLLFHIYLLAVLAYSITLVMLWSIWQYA
Sequence of UniProt Q16832 (whole entry, looked up): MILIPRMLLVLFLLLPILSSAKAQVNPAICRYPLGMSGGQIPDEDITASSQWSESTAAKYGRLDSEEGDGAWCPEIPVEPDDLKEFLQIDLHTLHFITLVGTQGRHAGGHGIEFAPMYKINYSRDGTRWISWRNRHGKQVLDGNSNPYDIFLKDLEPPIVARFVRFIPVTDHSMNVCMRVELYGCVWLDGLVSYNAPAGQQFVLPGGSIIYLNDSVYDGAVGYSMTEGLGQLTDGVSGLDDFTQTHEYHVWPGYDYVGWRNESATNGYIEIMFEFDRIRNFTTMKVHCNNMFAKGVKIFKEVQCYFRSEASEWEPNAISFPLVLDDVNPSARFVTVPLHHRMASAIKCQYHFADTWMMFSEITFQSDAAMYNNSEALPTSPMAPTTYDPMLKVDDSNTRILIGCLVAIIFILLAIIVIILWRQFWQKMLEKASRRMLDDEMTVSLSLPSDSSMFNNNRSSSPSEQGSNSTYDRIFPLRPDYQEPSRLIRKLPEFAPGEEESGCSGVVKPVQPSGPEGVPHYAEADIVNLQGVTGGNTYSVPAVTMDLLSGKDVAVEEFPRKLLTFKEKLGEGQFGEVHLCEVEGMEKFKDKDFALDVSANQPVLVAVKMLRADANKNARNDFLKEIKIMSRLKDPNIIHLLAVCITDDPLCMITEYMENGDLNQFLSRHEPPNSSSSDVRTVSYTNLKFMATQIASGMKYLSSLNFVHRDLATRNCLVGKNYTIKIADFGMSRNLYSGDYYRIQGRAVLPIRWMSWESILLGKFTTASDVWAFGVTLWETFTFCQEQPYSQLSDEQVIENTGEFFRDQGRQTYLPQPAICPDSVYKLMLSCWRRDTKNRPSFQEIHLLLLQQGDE
Sequence of UniProt P09936 (whole entry, looked up): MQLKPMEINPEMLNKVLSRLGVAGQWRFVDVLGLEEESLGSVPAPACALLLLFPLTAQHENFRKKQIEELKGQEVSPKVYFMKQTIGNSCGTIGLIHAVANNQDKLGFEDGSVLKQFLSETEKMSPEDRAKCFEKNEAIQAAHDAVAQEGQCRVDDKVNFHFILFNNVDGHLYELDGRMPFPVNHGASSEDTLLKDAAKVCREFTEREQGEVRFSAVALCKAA

Compound	target	assay	test system	conditions	scale	measurement	value
C#CCCCCOc1ccc2c(c1)CCCN2C(=O)CCl	VKORC1 (Homo sapiens, UniProt Q9BQB6)	mass spectrometry profiling	H460 cell lysate	100 µM over 10 µM, UniProt Q9BQB6	baseline: high over low concentration	reactivity ratio	1.55
CC(C)CC(O)(CC(C)C)c1cn(C(=O)N2CCCC2)nn1	Acylamino-acid-releasing enzyme (Apeh, Mus musculus, UniProt Q8R146)	probe labelling, inhibitor, competitive ABPP-SILAC	mouse T cells	concentration not given, 4 h, single peptide	baseline: treated over DMSO cells, lower = stronger inhibition	SILAC activity ratio	0
COC(=O)[C@@H](NC(=O)c1nn(Cc2ccc(F)cc2)c2cc(OCCCCNC(=N)N)ccc12)C(C)(C)C	CNR2 (Homo sapiens, UniProt P34972)	GTPase			baseline: FUB	Gi GTP turnover minimum	56%
O=C(O)c1ccc(-c2nc(-c3ccccc3Cl)c3sccn23)cc1	kappa opioid receptor	radioligand binding		10 µM	baseline: control	specific binding	88.2% and 90.9%
O=C(Cc1ccc(Cl)c(Cl)c1)N1CCN[C@@H]2COC[C@H](N3CCCC3)[C@H]21 (relative stereo)	OPRK1 (Homo sapiens, UniProt P41145)	agonist		0.3333 h		Emax	92%
CC1=CC(C)=[N+]2C1=C(CCCCN1CC=C(c3ccccc3)CC1)c1c(C)cc(C)n1[B-]2(F)F	SLC6A9 (Homo sapiens, UniProt P48067)	cell-free assay		1 µM		remaining signal	82.7%
O=C1NC(=O)c2c1c1cc(F)c[n+]3c1c1c2c2cc(O)ccc2[n]1[Ru-4]312([N]=C=S)[S+]3CC[S+]1CC[S+]2CC3 (centres unmarked)	DDR2 (Homo sapiens, UniProt Q16832)	enzyme activity		100 nM, human enzyme, added: 10 µM ATP	baseline: untreated	remaining activity	92%
N[C@H](C(=O)N1CCCC1)C1CCN(c2nccc3c(-c4ncc(Cl)cc4Cl)cccc23)CC1	PADI2 (Homo sapiens, UniProt Q9Y2J8)	enzyme activity		0.03932 µM, added: Ca2+ 0.25 mM		kcat	0.618 s⁻¹ and 0.623 s⁻¹
CN(C)[C@H]1C[C@@]23CC[C@@]4(O2)C(=CC[C@]2(C)[C@@H](c5ccc6ccncc6c5)CC[C@H]24)C=C3[C@@H](O)[C@@H]1O	ILK (Homo sapiens, UniProt Q13418)	ATP probe labelling, inhibitor, KiNativ profiling		0.1 µM		inhibition	-1.9%
CON(C(=O)c1cn(C)nc1C(F)F)C(C)Cc1c(Cl)cc(Cl)cc1Cl (centres unmarked)	SDHD/SDHC/SDHB (Sus scrofa, UniProt A5GZW8+D0VWV4+Q007T0)	enzyme activity, inhibitor, DCIP reduction	pig	1 µM, added: DCIP 40 µM		reaction velocity	0.00357 µM/s and 0.00263 µM/s
Fc1cccc(F)c1/N=N/c1cccc([B-](F)(F)F)c1.[K+]	Chymotrypsinogen A (Bos taurus, UniProt P00766)	enzyme activity, inhibitor		added: Suc-AAPF-AMC	baseline: Ki cis over Ki trans	switching factor	2.1 ± 0.1
CCOC(=O)[C@@H]1Cc2c(cc([N+](=O)[O-])cc2[N+](=O)[O-])[C@H](O)[C@]12C(=O)Nc1ccc(Br)cc12	ERBB2 (Homo sapiens, UniProt P04626)	binding, competition with immobilised ligand		0.1 µM		remaining binding	47%
CCc1nc2ccc(C(=O)NCCOc3ccc(OC)cc3)cn2c1N(C)Cc1ccc(OC)cc1	ache	inhibitor		5 µM		activity	active
O=C(O)c1cccc(CP(=O)(O)O)n1	VIM-2 (Escherichia coli, UniProt Q5U7L7)	enzyme activity, inhibitor		added: nitrocefin		koff	0.00433 ± 0.000167 s⁻¹
CCc1nnc(-c2c(OC)cc(-c3cnc4cc(-c5cnn(C)c5)ccn34)cc2OC)o1	HTR3A (Homo sapiens, UniProt P46098)	antagonist radioligand, radioligand binding		10 µM, SafetyScreen44 5-HT3 replicate 2	lower = stronger displacement	remaining binding	114%
O=C(NC1CCN(c2ncnc3[nH]cnc23)CC1)c1cccc(NS(=O)(=O)c2ccc(C(F)(F)F)cc2)c1	Genome polyprotein, NS5 methyltransferase domain (Zika virus, UniProt Q32ZE1)	NS5 enzyme activity, inhibitor		0.7812 µM		inhibition	1.47%
Cc1ccc(-c2csc(NN=C(C=Cc3c(Cl)cccc3Cl)C(=O)O)n2)cc1	ache	Ellman			baseline: IC50 BChE over IC50 AChE	selectivity index	12.1
CC(=O)N[C@@H](CCC(N)=O)C(=O)N[C@@H](CC1CCCCC1)C(=O)N[C@@H](CNC(=O)CCl)C(=O)N[C@@H](CC(C)C)C(=O)N[C@@H](Cc1ccccc1)C(=O)O	Beta sliding clamp (Escherichia coli, UniProt P0A988)	binding, isothermal titration calorimetry		37 °C		ΔG	-9.03 kcal/mol
CC(C)(C)c1cc(B(O)O)cc(C(C)(C)C)c1	Beta-lactamase (ampC, Escherichia coli K-12, UniProt P00811)	inhibitor, CENTA hydrolysis		from calculated Ki		ligand efficiency	0.43
Fc1ccc2[nH]c(NCCCNCc3cc(Cl)cc(Cl)c3)nc2c1	MARS2 (Homo sapiens, UniProt Q96GW9)	enzyme activity			baseline: human IC50 over T. brucei IC50	selectivity ratio	> 63.5
CS(C)(=O)=Nc1ccc(-c2ccc(-c3nc4cc(O[C@@H]5CO[C@H]6[C@@H]5OC[C@H]6O)[nH]c4cc3F)cc2)cc1	central benzodiazepine receptor	binding		10 µM		inhibition	14%
CC(C)OC(=O)[C@H](C)NP(=S)(Oc1ccccc1)c1ccccc1 (some centres unmarked)	CTSA (Homo sapiens, UniProt P10619)	substrate		5 µM, pH 7.4, 37 °C		DNS-NH2 formation rate constant	0.293 h⁻¹
C[C@H](NCc1ccc(-c2ccc(C(F)(F)F)cc2)cc1)C(N)=O	ADRA1D (Homo sapiens, UniProt P25100)	radioligand binding, SafetyScreen panel		1 µM, species human, added: 0.60 nM [3H]Prazosin		inhibition	-3%
Cc1ccc(N2CC3CCC(C2)N3C)cc1C(=O)N[C@H](C)c1cc(-c2cnn(C)c2)nc2ccccc12	UCHL1 (Homo sapiens, UniProt P09936)	enzyme activity		30 µM, 0.5 h		remaining activity	109%
CC(C)[C@H]1NC(=O)C[C@H]2/C=C/CCSSC[C@@H](NC1=O)C(=O)N[C@H](Cc1cccc3ccccc13)C(=O)NCC(=O)O2	EPHB1 (Homo sapiens, UniProt P54762)	enzyme activity, inhibitor		10 µM		inhibition	6.7%
CN(C)CCCSC(=S)N1CCN(C(=O)/C=C/c2coc3ccccc3c2=O)CC1	Nucleoprotein (N, Tomato spotted wilt virus, UniProt P25999, R94A/Y184A)	binding, microscale thermophoresis		31.25 µM	dose series	MST response	1.04 a.u.

A few entries again:
Compound	target	assay	test system	conditions	scale	measurement	value
Fc1ccc2[nH]c(NCCCNCc3cc(Cl)cc(Cl)c3)nc2c1	MARS2 (Homo sapiens, UniProt Q96GW9)	enzyme activity			baseline: human IC50 over T. brucei IC50	selectivity ratio	> 63.5
CS(C)(=O)=Nc1ccc(-c2ccc(-c3nc4cc(O[C@@H]5CO[C@H]6[C@@H]5OC[C@H]6O)[nH]c4cc3F)cc2)cc1	central benzodiazepine receptor	binding		10 µM		inhibition	14%
CC(C)OC(=O)[C@H](C)NP(=S)(Oc1ccccc1)c1ccccc1 (some centres unmarked)	CTSA (Homo sapiens, UniProt P10619)	substrate		5 µM, pH 7.4, 37 °C		DNS-NH2 formation rate constant	0.293 h⁻¹
